Published values of several laboratories.
Parts stem from different laboratories: compare values within a part only. “And” joins repeats or separate records; there may be more than shown. Numbers after ± are the reported error.
Sequence of UniProt P41145 (whole entry, looked up): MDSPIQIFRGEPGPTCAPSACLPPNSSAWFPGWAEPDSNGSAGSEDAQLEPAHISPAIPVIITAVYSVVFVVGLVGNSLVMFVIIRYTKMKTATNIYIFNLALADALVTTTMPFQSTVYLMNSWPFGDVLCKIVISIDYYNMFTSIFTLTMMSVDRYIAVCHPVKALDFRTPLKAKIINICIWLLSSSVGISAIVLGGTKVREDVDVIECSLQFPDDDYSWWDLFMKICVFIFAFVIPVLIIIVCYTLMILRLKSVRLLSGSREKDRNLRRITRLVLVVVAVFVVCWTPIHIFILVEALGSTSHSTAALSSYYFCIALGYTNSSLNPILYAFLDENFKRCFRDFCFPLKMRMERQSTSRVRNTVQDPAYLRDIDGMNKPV

Block 1 — organism: Staphylococcus aureus; strain: USA300; tested at: 2 x MIC; measurement: viable cells
Compound: CCCCC[C@@H](O)CC(=O)N[C@@H]1C(=O)N[C@H](CCCNC(=N)N)C(=O)N[C@@H](CO)C(=O)NCC(=O)N(C)[C@H](Cc2ccccc2)C(=O)N[C@@H](CC(C)C)C(=O)N[C@H](CCCNC(=N)N)C(=O)N[C@@H](CCC(=O)O)C(=O)N[C@H](CCC(N)=O)C(=O)N[C@H](Cc2c[nH]c3ccccc23)C(=O)N[C@@H]([C@@H](C)CC)C(=O)N[C@@H]([C@@H](C)O)C(=O)O[C@@H]1C
360 min: 200 CFU/mL and 300 CFU/mL
120 min: 600 CFU/mL and 300 CFU/mL and 500 CFU/mL
300 min: 200 CFU/mL and 100 CFU/mL
240 min: 100 CFU/mL and 200 CFU/mL

Other studies, line by line
N=C(N)NCCCCCCN1CCC23c4c5ccc(O)c4OC2c2nc4ccccc4cc2CC3(O)C1C5 (centres unmarked)
seizure score (modified Racine scale; C57BL/6J mice, male; intracerebroventricular, 100 nmol, 25 min; direction not given): 0

Cn1cc(-c2cccc(CN3CCC4(CC3)COc3c4ccc4c3CN([C@H]3CCC(=O)NC3=O)C4=O)c2)cn1
clearance (cynomolgus monkey; intravenous, 1 mg/kg): 20.7 mL/min/kg and 19.3 mL/min/kg and 14.2 mL/min/kg

N=C(N)NCCCCCCN1CC[C@]23c4c5ccc(O)c4O[C@H]2c2[nH]c4ccccc4c2C[C@@]3(O)[C@H]1C5
Emax (Kappa-type opioid receptor, with Gi1 (OPRK1, Homo sapiens, UniProt P41145); human cells): 36 ± 5%

COc1cc(C(=O)OCCCN2CCCN(CCCOC(=O)c3cc(OC)c(OC)c(OCc4ccc([N+](=O)[O-])cc4)c3)CC2)cc(OC)c1OC
plasma concentration (LC-MS/MS; CD-1 mouse, male, plasma; subcutaneous, 30 mg/kg): ~100 ng/mL

Repeated from above (other studies, line by line):
COc1cc(C(=O)OCCCN2CCCN(CCCOC(=O)c3cc(OC)c(OC)c(OCc4ccc([N+](=O)[O-])cc4)c3)CC2)cc(OC)c1OC
plasma concentration (LC-MS/MS; CD-1 mouse, male, plasma; subcutaneous, 30 mg/kg): ~100 ng/mL
